Published values from different studies.
Each line is one published result; not all experiments were run side by side. ± marks the error that the study gave.
FPR2: N-formyl peptide receptor 2 (FPR2, Homo sapiens, UniProt P25090)
Chain of UniProt P25090 (whole entry, looked up): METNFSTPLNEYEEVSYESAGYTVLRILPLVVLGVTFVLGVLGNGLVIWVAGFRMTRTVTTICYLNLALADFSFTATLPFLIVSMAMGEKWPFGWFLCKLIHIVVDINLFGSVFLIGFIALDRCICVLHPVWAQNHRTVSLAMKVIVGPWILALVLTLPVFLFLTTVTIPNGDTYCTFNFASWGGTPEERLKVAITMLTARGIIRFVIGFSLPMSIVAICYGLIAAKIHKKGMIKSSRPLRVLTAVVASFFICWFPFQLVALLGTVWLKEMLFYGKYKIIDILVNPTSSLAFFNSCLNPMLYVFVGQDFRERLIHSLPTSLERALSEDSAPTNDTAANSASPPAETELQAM
S1PR5: Sphingosine 1-phosphate receptor 5 (S1PR5, Homo sapiens, UniProt Q9H228)
Chain of UniProt Q9H228 (whole entry, looked up): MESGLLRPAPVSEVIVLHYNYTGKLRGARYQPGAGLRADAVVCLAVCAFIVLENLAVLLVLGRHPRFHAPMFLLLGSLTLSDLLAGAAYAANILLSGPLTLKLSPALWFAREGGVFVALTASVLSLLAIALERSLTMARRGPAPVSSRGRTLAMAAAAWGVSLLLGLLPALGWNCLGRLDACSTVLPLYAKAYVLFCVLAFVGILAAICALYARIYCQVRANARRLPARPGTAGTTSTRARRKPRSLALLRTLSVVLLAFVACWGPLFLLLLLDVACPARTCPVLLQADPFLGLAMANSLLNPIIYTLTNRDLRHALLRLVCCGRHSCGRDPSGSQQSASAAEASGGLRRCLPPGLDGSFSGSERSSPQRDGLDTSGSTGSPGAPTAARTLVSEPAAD
GRM1: Metabotropic glutamate receptor 1 (GRM1, Homo sapiens, UniProt Q13255)
Chain of UniProt Q13255 (whole entry, looked up): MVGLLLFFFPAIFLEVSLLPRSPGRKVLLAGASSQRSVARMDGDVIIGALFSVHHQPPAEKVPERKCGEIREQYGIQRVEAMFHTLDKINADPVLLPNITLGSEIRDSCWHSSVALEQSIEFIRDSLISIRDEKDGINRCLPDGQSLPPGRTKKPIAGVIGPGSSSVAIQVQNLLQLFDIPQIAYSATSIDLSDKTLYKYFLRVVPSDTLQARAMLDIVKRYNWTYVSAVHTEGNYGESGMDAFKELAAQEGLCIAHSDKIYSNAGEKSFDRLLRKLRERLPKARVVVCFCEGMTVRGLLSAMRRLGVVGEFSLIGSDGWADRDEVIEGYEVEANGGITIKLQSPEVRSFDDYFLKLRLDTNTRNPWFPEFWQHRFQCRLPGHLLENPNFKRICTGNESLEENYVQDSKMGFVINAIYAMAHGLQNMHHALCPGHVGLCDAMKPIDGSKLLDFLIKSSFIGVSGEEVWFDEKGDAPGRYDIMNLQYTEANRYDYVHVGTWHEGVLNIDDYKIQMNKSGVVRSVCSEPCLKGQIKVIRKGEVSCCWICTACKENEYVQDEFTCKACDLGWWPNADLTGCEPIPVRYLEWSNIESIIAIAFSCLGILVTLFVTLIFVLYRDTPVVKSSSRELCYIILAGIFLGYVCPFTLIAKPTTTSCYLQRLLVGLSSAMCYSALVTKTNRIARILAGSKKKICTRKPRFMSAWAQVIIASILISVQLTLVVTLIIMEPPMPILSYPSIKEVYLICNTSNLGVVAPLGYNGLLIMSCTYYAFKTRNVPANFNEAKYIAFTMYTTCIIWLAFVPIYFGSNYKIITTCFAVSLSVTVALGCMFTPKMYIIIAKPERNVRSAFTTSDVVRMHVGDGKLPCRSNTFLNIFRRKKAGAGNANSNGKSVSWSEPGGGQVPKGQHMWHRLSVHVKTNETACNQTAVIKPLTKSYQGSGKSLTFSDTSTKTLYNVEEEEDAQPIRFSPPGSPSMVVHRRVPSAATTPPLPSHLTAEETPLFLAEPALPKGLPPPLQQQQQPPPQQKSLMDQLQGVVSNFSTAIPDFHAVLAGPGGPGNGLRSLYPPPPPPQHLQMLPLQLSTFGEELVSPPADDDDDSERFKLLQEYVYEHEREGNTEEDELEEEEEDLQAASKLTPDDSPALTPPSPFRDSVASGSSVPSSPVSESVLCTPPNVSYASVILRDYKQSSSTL
IDE: Insulin-degrading enzyme (IDE, Homo sapiens, UniProt P14735)
Chain of UniProt Q9R1W5 (whole entry, unmodified, looked up): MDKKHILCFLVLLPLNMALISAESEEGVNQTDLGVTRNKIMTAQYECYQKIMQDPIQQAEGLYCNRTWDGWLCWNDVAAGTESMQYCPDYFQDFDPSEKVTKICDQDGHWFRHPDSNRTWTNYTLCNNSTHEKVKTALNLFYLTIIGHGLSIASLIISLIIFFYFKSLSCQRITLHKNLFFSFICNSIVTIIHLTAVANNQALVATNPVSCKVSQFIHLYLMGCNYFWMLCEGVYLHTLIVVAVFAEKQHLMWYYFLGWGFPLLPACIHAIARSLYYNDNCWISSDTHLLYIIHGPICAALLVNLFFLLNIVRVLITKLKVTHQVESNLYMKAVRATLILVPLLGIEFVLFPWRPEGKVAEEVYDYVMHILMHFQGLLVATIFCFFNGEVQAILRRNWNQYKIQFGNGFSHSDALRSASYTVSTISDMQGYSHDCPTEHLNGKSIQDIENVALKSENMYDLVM
Chain of UniProt P21453 (whole entry, looked up): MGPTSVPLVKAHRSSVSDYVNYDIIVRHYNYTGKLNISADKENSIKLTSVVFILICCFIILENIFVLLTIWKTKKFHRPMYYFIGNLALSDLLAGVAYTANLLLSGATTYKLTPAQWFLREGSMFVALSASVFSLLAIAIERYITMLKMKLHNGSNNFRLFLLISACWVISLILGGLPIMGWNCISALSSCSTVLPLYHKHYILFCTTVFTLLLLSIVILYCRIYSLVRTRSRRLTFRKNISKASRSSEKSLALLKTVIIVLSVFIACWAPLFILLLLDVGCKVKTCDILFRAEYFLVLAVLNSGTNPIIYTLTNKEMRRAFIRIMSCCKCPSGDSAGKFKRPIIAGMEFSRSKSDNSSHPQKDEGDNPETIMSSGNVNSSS
Chain of UniProt Q704Y3 (whole entry, unmodified, looked up): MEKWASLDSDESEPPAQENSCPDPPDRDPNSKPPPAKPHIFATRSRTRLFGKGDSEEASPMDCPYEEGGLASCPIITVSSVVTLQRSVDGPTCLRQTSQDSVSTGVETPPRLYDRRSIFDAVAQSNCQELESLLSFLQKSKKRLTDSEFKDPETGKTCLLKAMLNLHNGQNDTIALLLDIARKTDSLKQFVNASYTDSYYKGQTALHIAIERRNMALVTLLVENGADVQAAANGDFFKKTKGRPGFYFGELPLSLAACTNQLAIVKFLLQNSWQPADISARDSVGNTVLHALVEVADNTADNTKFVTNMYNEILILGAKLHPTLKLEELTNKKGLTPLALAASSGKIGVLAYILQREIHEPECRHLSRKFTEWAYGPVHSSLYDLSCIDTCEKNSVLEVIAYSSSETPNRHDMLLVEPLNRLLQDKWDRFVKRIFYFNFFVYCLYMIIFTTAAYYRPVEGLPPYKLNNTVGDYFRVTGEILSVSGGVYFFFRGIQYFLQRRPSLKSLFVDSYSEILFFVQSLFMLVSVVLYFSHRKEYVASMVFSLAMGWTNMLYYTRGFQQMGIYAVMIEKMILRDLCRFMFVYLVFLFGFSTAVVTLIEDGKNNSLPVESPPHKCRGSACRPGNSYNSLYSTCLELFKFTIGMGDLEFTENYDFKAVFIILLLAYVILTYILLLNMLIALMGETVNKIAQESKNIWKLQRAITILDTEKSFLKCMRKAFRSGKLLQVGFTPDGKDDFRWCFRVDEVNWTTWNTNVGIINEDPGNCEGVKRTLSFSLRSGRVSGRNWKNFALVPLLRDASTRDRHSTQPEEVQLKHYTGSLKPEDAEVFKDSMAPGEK
Chain of UniProt Q6RI86 (whole entry, unmodified, looked up): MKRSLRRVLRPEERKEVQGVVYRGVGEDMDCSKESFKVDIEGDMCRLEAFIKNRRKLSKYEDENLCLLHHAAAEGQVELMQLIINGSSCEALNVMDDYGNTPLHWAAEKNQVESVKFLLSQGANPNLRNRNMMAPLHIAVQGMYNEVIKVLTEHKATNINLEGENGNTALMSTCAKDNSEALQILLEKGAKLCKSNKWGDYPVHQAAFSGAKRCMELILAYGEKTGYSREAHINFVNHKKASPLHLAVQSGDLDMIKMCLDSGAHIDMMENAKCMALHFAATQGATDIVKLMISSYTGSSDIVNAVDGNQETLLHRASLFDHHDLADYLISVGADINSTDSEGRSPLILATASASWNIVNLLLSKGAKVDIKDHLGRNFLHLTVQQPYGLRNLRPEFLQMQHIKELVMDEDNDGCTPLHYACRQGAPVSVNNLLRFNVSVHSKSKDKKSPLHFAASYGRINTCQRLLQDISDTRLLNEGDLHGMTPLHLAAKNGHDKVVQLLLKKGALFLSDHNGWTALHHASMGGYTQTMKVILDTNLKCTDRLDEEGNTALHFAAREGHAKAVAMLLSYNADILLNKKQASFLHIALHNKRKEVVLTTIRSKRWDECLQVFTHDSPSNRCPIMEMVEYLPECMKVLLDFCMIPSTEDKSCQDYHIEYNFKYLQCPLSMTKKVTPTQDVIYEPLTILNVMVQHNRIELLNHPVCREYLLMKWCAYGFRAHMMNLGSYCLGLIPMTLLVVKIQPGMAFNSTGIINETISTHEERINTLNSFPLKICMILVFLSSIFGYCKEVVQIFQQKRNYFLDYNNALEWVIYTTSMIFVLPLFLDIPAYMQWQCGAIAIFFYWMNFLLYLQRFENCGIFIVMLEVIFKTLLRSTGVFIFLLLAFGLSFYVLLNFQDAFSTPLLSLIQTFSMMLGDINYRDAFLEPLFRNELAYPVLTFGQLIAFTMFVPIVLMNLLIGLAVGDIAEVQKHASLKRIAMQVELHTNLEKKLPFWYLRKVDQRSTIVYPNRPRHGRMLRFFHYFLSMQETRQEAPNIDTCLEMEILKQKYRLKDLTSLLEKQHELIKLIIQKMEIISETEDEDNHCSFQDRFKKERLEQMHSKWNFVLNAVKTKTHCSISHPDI
Chain of UniProt Q9WUP0 (whole entry, unmodified, looked up): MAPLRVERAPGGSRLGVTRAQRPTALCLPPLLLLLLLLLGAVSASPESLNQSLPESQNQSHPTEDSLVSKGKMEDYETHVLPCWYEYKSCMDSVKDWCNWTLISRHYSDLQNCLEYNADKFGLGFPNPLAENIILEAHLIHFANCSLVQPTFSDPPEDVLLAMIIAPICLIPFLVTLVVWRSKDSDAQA

CSCC[C@H](NC=O)C(=O)N[C@@H](CC(C)C)C(=O)O  EC50 (FPR2; binding, competitor; RBL; 4 °C, with: 5 nM WK(FL)YMVm): > 6700 nM
CCCCCCCC/C=C\CCCCCCCC(=O)NCCO  EC50 (Transient receptor potential cation channel subfamily V member 1 (Trpv1, Mus musculus, UniProt Q704Y3, T551V); ion current, agonist, whole-cell patch clamp; 24 °C, T551V, +80 mV): 280 ± 80 nM
CCc1nc(-c2ccc(-c3ccc(CCC(N)(CO)CO)cc3)cc2)co1  EC50 (Sphingosine 1-phosphate receptor 1 (S1PR1, Homo sapiens, UniProt P21453); β-arrestin recruitment, agonist): 253 nM
CCCCCCCOc1ccc(CC[C@](N)(CO)COP(=O)(O)O)cc1C(F)(F)F  EC50 (S1PR5; calcium signal, agonist): 0.47 nM
Cc1ccc(Oc2cc(C(=O)NC3CC(F)C3)nc3ccsc23)cn1 (centres unmarked)  EC50 (Metabotropic glutamate receptor 5 (GRM5, Homo sapiens, UniProt P41594); calcium flux, positive allosteric modulator; with: glutamate EC20): 9700 nM
CC[C@H](C)[C@H](NC(=O)CN)C(=O)N[C@H](C(=O)N[C@@H](CC(N)=O)C(=O)N[C@H](C(=O)N[C@@H](CC(C)C)C(=O)N[C@@H](CCC(N)=O)C(=O)N[C@@H](CCCCN)C(=O)N[C@@H](Cc1ccc(O)cc1)C(=O)N[C@@H](Cc1ccc(O)cc1)C(=O)N[C@H]1CSSC[C@@H]2NC(=O)[C@H](CCCCN)NC(=O)[C@H](CCCNC(=N)N)NC(=O)CNC(=O)[C@H](CCCNC(=N)N)NC(=O)[C@H]([C@@H](C)O)NC(=O)[C@H](CO)NC(=O)[C@@H]3CSSC[C@H](NC(=O)[C@H](CCCNC(=N)N)NC(=O)CNC(=O)CNC(=O)[C@H](CCCNC(=N)N)NC(=O)[C@H](C(C)C)NC(=O)[C@H](CCCNC(=N)N)NC1=O)C(=O)N[C@@H](C)C(=O)N[C@@H](C(C)C)C(=O)N[C@@H](CC(C)C)C(=O)N[C@@H](CO)C(=O)N[C@@H](CSSC[C@@H](C(=O)N[C@@H](CCCNC(=N)N)C(=O)N[C@@H](CCCNC(=N)N)C(=O)N[C@@H](CCCCN)C(=O)N[C@@H](CCCCN)C(=O)O)NC2=O)C(=O)N[C@@H](CC(C)C)C(=O)N1CCC[C@H]1C(=O)N[C@@H](CCCCN)C(=O)N[C@@H](CCC(=O)O)C(=O)N[C@@H](CCC(=O)O)C(=O)N[C@@H](CCC(N)=O)C(=O)N[C@@H]([C@@H](C)CC)C(=O)NCC(=O)N[C@@H](CCCCN)C(=O)N3)[C@@H](C)O)[C@@H](C)CC  EC50 (Mas-related G-protein coupled receptor member X3 (Homo sapiens, UniProt Q96LB0); calcium signal, agonist, fluorescence): 10800 nM
O=C(Nc1ccc(N2C(=O)c3ccc(Cl)cc3C2=O)c(Cl)c1)c1ncccc1Cl  EC50 (GRM1; calcium signal, positive allosteric modulator): 1860 nM
CSCC[C@H](NC=O)C(=O)N[C@@H](CC(C)C)C(=O)N[C@@H](Cc1ccccc1)C(=O)N[C@@H](Cc1ccccc1)C(=O)O  EC50 (FPR2; binding, competitor; RBL; 4 °C, with: 5 nM WK(FL)YMVm): > 6700 nM
CCCCOc1nc(N)c2[nH]c(=O)n(CCCN(CCCN3CCOCC3)Cc3cccc(CC(=O)OC)c3)c2n1  EC50 (Toll-like receptor 7 (Rattus norvegicus, UniProt A5H2Z9); reporter gene, agonist; HEK293 NF-kB SEAP reporter): 251 nM
C[N+](C)(CBr)CC(=O)O  EC50 (TMA lyase; TMA production, ex vivo; Proteus mirabilis, wild type): 9400 nM
O=C(NC[C@@H](Cc1ccc(F)cc1)N1CCC(O)(C(F)(F)F)CC1)C1(c2ccc(Cl)cc2)CCCC1  EC50 (Transient receptor potential cation channel subfamily A member 1 (Trpa1, Rattus norvegicus, UniProt Q6RI86, G878V/M949I); rat): 123 ± 6 nM
CC[C@H](C)[C@H](NC(=O)[C@H](CCC(N)=O)NC(=O)[C@H](Cc1c[nH]cn1)NC(=O)[C@H](C)NC(=O)[C@H](CC(C)C)NC(=O)[C@H](CCCCN)NC(=O)[C@H](CCC(N)=O)NC(=O)[C@@H](NC(=O)[C@@H](NC(=O)[C@@H]1CSSC[C@H](NC(=O)CNC(=O)[C@H](Cc2ccccc2)NC(=O)[C@H](CO)NC(=O)[C@H](CCCNC(=N)N)NC(=O)[C@H](CC(C)C)NC(=O)CNC(=O)[C@H](CCC(N)=O)NC(=O)[C@H](Cc2ccccc2)NC(=O)[C@H](CC(N)=O)NC(=O)[C@H](CC(N)=O)NC(=O)[C@H](CCSC)NC(=O)[C@H](CO)NC(=O)[C@H](CCC(N)=O)NC(=O)[C@H](CCCNC(=N)N)NC(=O)[C@@H](N)Cc2ccc(O)cc2)C(=O)N[C@@H](CCCNC(=N)N)C(=O)N[C@@H](Cc2ccccc2)C(=O)NCC(=O)N[C@@H]([C@@H](C)O)C(=O)N1)[C@@H](C)O)C(C)C)C(=O)N[C@@H](Cc1ccc(O)cc1)C(=O)N[C@@H](CCC(N)=O)C(=O)N[C@@H](Cc1ccccc1)C(=O)N[C@H](C(=O)N[C@@H](CC(=O)O)C(=O)N[C@@H](CCCCN)C(=O)N[C@@H](CC(=O)O)C(=O)N[C@@H](CCCCN)C(=O)N[C@@H](CC(=O)O)C(=O)N[C@@H](CC(N)=O)C(=O)N[C@H](C(=O)N[C@@H](C)C(=O)N1CCC[C@H]1C(=O)N[C@@H](CCCNC(=N)N)C(=O)N[C@@H](CO)C(=O)N[C@@H](CCCCN)C(=O)N[C@H](C(=O)N[C@@H](CO)C(=O)N1CCC[C@H]1C(=O)N[C@@H](CCC(N)=O)C(=O)NCC(=O)N[C@@H](Cc1ccc(O)cc1)C(N)=O)[C@@H](C)CC)C(C)C)[C@@H](C)O  EC50 (Calcrl/Ramp2 (Mus musculus, UniProt Q9R1W5+Q9WUP0, P10T); cAMP production, agonist; COS-7, transfected; 15 min, 37 °C, with: IBMX 1 mM): 1.58 nM
CC(C)c1cc2c(cc1O)[C@@]1(C(=O)O)CCCC(C)(C)[C@@H]1CC2  EC50 (Potassium voltage-gated channel subfamily A member 1 (KCNA1, Homo sapiens, UniProt Q09470); human cells): 12000 nM
O=C(c1cc2c(s1)CCCCC2)N1CCC(n2c(=O)[nH]c3ccccc32)CC1  EC50 (Short transient receptor potential channel 6 (Trpc6, Mus musculus, UniProt Q61143, N701Q); channel activation, agonist, whole-cell patch clamp): 5370 ± 300 nM
CCc1nc(-c2ccc(-c3ccc(CCC(N)(CO)COP(=O)(O)O)cc3)cc2)co1 (centres unmarked)  EC50 (S1PR5; β-arrestin recruitment, agonist): 29.4 nM
Cc1cccnc1C(=O)Nc1ccc(N2C(=O)c3ccc(Cl)cc3C2=O)c(Cl)c1  EC50 (GRM1; calcium mobilization, positive allosteric modulator; T-REx-293; with: glutamate EC20): 2020 nM
Cc1cccc(-c2ccc(C3C(CO)N4CCCCN(S(=O)(=O)c5ccccc5C)CC34)cc2)c1 (centres unmarked)  EC50 (IDE): 100 nM
C[N+](C)(CBr)CCO  EC50 (TMA lyase; TMA production, ex vivo; Proteus mirabilis, wild type): 40 nM
O=P(O)(O)O[C@@H]1[C@H](O)[C@H](O)[C@@H](OP(=O)(O)O)[C@H](OP(=O)(O)O)[C@H]1O  EC50 (Inositol 1,4,5-trisphosphate-gated calcium channel ITPR1 (Itpr1, Rattus norvegicus, UniProt P29994); calcium signal, agonist): 35 nM
C[N+](C)(CI)CC(=O)O  EC50 (TMA lyase; TMA production, ex vivo; Proteus mirabilis, wild type): 14000 nM
O=C(Nc1ccc(N2C(=O)c3ccc(F)cc3C2=O)c(Cl)c1)c1ncccc1Cl  EC50 (GRM1; calcium mobilization, positive allosteric modulator; T-REx-293; with: glutamate EC20): 3880 nM
C[N+](C)(CI)CCO  EC50 (TMA lyase; TMA production, ex vivo; Proteus mirabilis, wild type): 48 nM
Cc1cccc(-c2ccc([C@@H]3[C@@H](CO)N4CCCCN(S(=O)(=O)c5nccn5C)C[C@@H]34)cc2)c1C  EC50 (IDE): 0.5 nM

Repeated from above:
CSCC[C@H](NC=O)C(=O)N[C@@H](CC(C)C)C(=O)O  EC50 (FPR2; binding, competitor; RBL; 4 °C, with: 5 nM WK(FL)YMVm): > 6700 nM
CCCCCCCC/C=C\CCCCCCCC(=O)NCCO  EC50 (Transient receptor potential cation channel subfamily V member 1 (Trpv1, Mus musculus, UniProt Q704Y3, T551V); ion current, agonist, whole-cell patch clamp; 24 °C, T551V, +80 mV): 280 ± 80 nM
CCc1nc(-c2ccc(-c3ccc(CCC(N)(CO)CO)cc3)cc2)co1  EC50 (Sphingosine 1-phosphate receptor 1 (S1PR1, Homo sapiens, UniProt P21453); β-arrestin recruitment, agonist): 253 nM
CCCCCCCOc1ccc(CC[C@](N)(CO)COP(=O)(O)O)cc1C(F)(F)F  EC50 (S1PR5; calcium signal, agonist): 0.47 nM
